{"data": "Experimental data gathered from unrelated publications", "note": "A part holds a random share of what one study measured."}
{"data": "Series 1", "target": "Interferon regulatory factor 7, full length, phosphomimetic (IRF7, Homo sapiens, UniProt Q92985, residues 1-503, S471D/S472D/S475D/S476D/S477D/S483D/S484D/S487D)", "technique": "protein-binding microarray", "molecule type": "double-stranded DNA, one strand shown", "medium": "in vitro", "concentration": "2200 nM top", "setting": "60-bp whole probe", "together with": "salmon DNA 0.4 mg/ml", "relative to": "random background probes", "direction": "higher = stronger binding", "constant ends, left off below": "GCCTAGCAC … GTCTTGATTCGCTTGACGCTGCTG", "Construct (chain)": "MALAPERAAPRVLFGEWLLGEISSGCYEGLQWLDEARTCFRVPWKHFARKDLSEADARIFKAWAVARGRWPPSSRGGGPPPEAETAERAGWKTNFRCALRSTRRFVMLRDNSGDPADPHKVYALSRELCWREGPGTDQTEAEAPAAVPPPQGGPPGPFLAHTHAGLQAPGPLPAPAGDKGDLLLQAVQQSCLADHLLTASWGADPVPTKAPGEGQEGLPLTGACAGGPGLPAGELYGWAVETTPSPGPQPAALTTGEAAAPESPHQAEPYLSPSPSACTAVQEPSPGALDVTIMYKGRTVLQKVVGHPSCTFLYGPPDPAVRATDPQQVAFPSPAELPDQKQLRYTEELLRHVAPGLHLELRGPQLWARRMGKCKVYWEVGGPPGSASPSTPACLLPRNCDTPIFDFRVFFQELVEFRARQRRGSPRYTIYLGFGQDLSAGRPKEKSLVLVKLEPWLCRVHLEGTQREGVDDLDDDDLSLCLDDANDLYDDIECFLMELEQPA"}
{"Strand": "TGACCTGCTCCAAACACCTCGTGCTAG", "fitted relative affinity": "0.804 z-score"}
{"Strand": "GACGAACTGCGGACTGGAGACGTGCTA", "fitted relative affinity": "-0.304 z-score"}
{"Strand": "GACGATTCCAGATTCGAGACGTGCTAG", "fitted relative affinity": "1.13 z-score"}
{"Strand": "TTAGGACTGGGACTGCGTTAGTGCTAG", "fitted relative affinity": "-0.705 z-score"}
{"Strand": "GACGGACTGCCTCTCCTGACGTGCTAG", "fitted relative affinity": "0.341 z-score"}
{"Strand": "TTAGGTATCGGTATTGGTTAGTGCTAG", "fitted relative affinity": "0.746 z-score"}
{"Strand": "TTAAGTATCCTTTTCCTTTAGTGCTAG", "fitted relative affinity": "1.78 z-score"}
{"data": "Series 2", "target": "RNA binding protein fox-1 homolog 2, RRM domain, GST-SBP tag (RBFOX2, Homo sapiens, UniProt O43251-10, residues 100-194)", "technique": "RNA Bind-n-Seq", "molecule type": "RNA", "medium": "in vitro", "concentration": "365 nM", "setting": "natural RNA segment, single round, ends assumed", "relative to": "no-protein control", "direction": "higher = stronger binding", "Residues (chain)": "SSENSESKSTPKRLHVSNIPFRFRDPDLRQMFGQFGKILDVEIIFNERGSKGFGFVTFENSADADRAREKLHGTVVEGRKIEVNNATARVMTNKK"}
{"Strand": "GGGAGUUCUACAGUCCGACGAUCACUCCUUGGGCCCAAGGGCUUUAGCAGCUGGAUAUGGGGUUCCUUGAUUUUCCUCUGGGCCCAAAUAUAGCCCUCACACUCUUGGAAUUUCCAGGUAUGGGGGUAGCCCCUGGAAUUCUCGGGUGCCAA", "RBNS enrichment (R)": 1.25}
{"Strand": "GGGAGUUCUACAGUCCGACGAUCCUAAUGCAUAGAGACACUAAAACCCACACCACAUUUUGUGGGAAAUGAGGAUCCUGAUCCUCUUUUGUCCUCUCCAGGUAGUCUCGCAGGUUAUGCAGCUUAAGUUCAGUUGGAAUUCUCGGGUGCCAA", "RBNS enrichment (R)": 0.452}
{"Strand": "GGGAGUUCUACAGUCCGACGAUCUGAAAAAUCAUCGAAAUGUAUAAAAAUUGCAGUAUCUUUAAAAUCAGUAAAAUGGACUAGCAUAUUAUUUAUCUUGUUCUUCAGUUAACAACUUUGUGUUCUCUGUGGGAUGGAAUUCUCGGGUGCCAA", "RBNS enrichment (R)": 0.609}
{"Strand": "GGGAGUUCUACAGUCCGACGAUCCAUGGAGGUGGUUUAAGCAUAAUACUUAACCCAAGAAAGAGUGUAAGUGGACACAAGCUGUGCCUGCACAUAGCUGUGCAGGGUAGACUGCCUACAUACACAUGGCCGGGUGGAAUUCUCGGGUGCCAA", "RBNS enrichment (R)": 0.298}
{"data": "Series 3", "target": "Histone acetyltransferase KAT6A, both winged helices, GST fusion (KAT6A, Homo sapiens, UniProt Q92794, residues 1-181)", "technique": "protein binding microarray", "molecule type": "double-stranded DNA, one strand shown", "medium": "in vitro", "concentration": "not given", "setting": "8-mer, flanks averaged, mean of 2 arrays, mostly near background", "relative to": "not given", "direction": "higher = stronger binding", "Construct (chain)": "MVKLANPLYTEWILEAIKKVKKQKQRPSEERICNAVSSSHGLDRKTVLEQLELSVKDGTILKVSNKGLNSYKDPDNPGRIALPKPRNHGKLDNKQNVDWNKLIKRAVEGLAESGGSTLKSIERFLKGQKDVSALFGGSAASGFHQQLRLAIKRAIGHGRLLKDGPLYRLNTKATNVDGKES"}
{"Strand": "ATAAGCCC", "E-score": -0.01}
{"Strand": "AGCTGTAC", "E-score": -0.0588}
{"Strand": "GTTTGATA", "E-score": -0.00915}
{"Strand": "ACGGCCTA", "E-score": 0.211}
{"Strand": "CGACGAAG", "E-score": 0.0269}
{"Strand": "CTCATTGA", "E-score": 0.014}
{"Strand": "GCGGAAGC", "E-score": 0.293}
{"Strand": "ATATGAGA", "E-score": -0.088}
{"data": "Single results of other studies"}
{"Substance": "PhoQ, residues 284 288 289 292 302 303 SIHMAM", "target": "PhoP, residues 12 14 15 18 19 SEGLL (Escherichia coli, UniProt P23836)", "assay": "Sort-seq, item: YFP reporter", "system": "E. coli", "conditions": "PhoQ-PhoP variant library, together with: 10 µM Mg2+", "how to read": "relative to: high Mg2+ state, higher = stronger signaling", "measurement": "fold induction", "result": 5.87}
{"note": "Excerpt of the above (series 3):"}
{"Strand": "ATAAGCCC", "E-score": -0.01}
{"Strand": "CTCATTGA", "E-score": 0.014}
{"Strand": "ACGGCCTA", "E-score": 0.211}
